Results of several laboratories.
Protocols differ between the studies behind these lines. Values joined by “and” are separate records of one study, mostly repeats; a detail may differ. ± gives the spread as reported.

Structure (SMILES) | tested on | test | system | conditions | how to read | measurement | result
CNS(=O)(=O)Nc1nccc(Cc2c(C)c3ccc(Oc4ncccc4F)cc3oc2=O)c1F | HCC4006 | cell viability | – | 7 days | – | IC50 | 0.422 µM
NC(=O)c1ccc(-c2ccccc2Cl)c2c3c([nH]c12)CCC(N)C3 (stereo not drawn) | BGC-823 | cell growth or viability | – | 96 h | – | IC50 | 0.024 µM
CC(C)N=c1cc2n(-c3ccc(Cl)cc3)c3ccccc3nc-2cc1Nc1ccc(Cl)cc1 | Trypanosoma cruzi | reporter mRNA translation, inhibitor, refers to: Renilla luciferase mRNA | cell-free extract | concentration not given | relative to: positive over negative control | translation activity | 98.4% and 145%
CC(C)c1ccc(N(C)c2ccc3c(c2)OCC[C@H]3CNc2cnccc2C(=O)O)cc1 | KU-19-19 | cell growth or viability, ATP luminescence | – | 7 days | – | IC50 | 0.0103 µM
CCOc1cncc(-c2ccc(NC(=O)C3(c4ccnc(NS(=O)(=O)C5CC5)n4)CCOCC3)nc2)n1 | lung cancer | cell viability, CellTiter-Glo | DMSO 0.1% | 72 h, line code 289 | – | IC50 | 10 µM
N#Cc1c(N)nc2c(c1-c1cccs1)Cc1cc(O)ccc1-2 | HBP-ALL | cell viability, CellTiter-Glo | – | – | no inhibition at 100 µM | IC50 | 52.3 µM
CC[C@@H](C)[C@@H](NC(=O)[C@@H](C)NC(=O)[C@H](N)Cc1c[nH]cn1)C(=O)N[C@H](Cc1ccc(O)cc1)C(=O)N1CCC[C@@H]1C(=O)N[C@H](CCCNC(=N)N)C(=O)N[C@H](Cc1c[nH]cn1)C(=O)N[C@H](CO)C(=O)N[C@H](Cc1c[nH]c2ccccc12)C(=O)N[C@@H](C(=O)N[C@H](Cc1c[nH]c2ccccc12)C(=O)N[C@H](CCC(=O)O)C(=O)N[C@H](CCCCN)C(=O)N[C@H](CCCCN)C(=O)N[C@H](CC(C)C)C(=O)N[C@H](CCC(=O)O)C(=O)N[C@@H](C(=O)N[C@H](C)C(=O)N[C@@H](C(=O)N[C@H](CC(N)=O)C(=O)N[C@H](CC(C)C)C(=O)N[C@H](C)C(=O)N[C@H](Cc1c[nH]c2ccccc12)C(=O)N[C@@H](C(=O)N[C@H](C)C(=O)NCC(=O)N[C@H](CC(N)=O)C(=O)N[C@H](CO)C(=O)N[C@H](CC(N)=O)C(=O)N[C@H](CCCCN)C(=O)N[C@H](Cc1c[nH]c2ccccc12)C(=O)N[C@@H](C(=O)N[C@H](Cc1c[nH]c2ccccc12)C(=O)N[C@H](CCCCN)C(=O)O)[C@H](C)O)[C@H](C)O)C(C)C)[C@H](C)O)[C@H](C)O | MEC1 | cell growth or viability, flow cytometry | – | 90 min | – | IC50 | 5 µM
CC1(C)CC(=O)C2=C(C1)Oc1ccc3ccccc3c1C2c1c(C(=O)O)[nH]c2ccccc12 (stereo not drawn) | 3T3-L1 | cell growth or viability, MTT | – | 72 h | – | IC50 | 19.4 µg/mL
O=C(OC[C@H]1O[C@@H](Oc2ccc(CO)cc2)[C@H](O)[C@@H](O)[C@@H]1O)c1ccc(O)cc1 | T47D breast cancer | cell viability, MTT | DMEM with 10% FBS | 48 h | – | IC50 | > 200 µM
O=C(CCNc1cccc2c1C(=O)N(C1CCC(=O)NC1=O)C2=O)NCCOCCOCCOCCN1CCC(CNC(=O)c2cccc(-c3noc(C(F)(F)F)n3)c2)(c2nc(-c3ccccc3)cs2)CC1 (stereo not drawn) | JeKo-1 CRBN knockout | cell proliferation | – | 168 h | – | IC50 | 16.8 ± 3.37 µM
CC[C@H]1CC[C@H]2[C@@H]3C[C@@H](O)[C@@]4(O)C[C@H](N)CC[C@]4(C)[C@H]3CC[C@]12C | BV-2 | nuclear intensity, high-content imaging | – | geometric mean | – | IC50 | 1.92 µM
CCCCCCCCCCCCSCC(COCC(O)C[N+](C)(C)CCN)SCCCCCCCCCCCC (stereo not drawn) | BHK-21 | cell growth or viability, MTT | – | – | – | IC50 | 144 µM
COc1cc(CN(C)CCc2ccccc2)ccc1OCc1ccccc1 | Trypanosoma cruzi | reporter mRNA translation, inhibitor, refers to: Renilla luciferase mRNA | cell-free extract | concentration not given, test 2 | relative to: positive over negative control | translation activity | 122% and 130%
C=C1C(=O)OC2C1CCC(C)(O)C13C=CC(C)(C21)C1(C3)C(=O)OC2C3C(C)=CC(=O)C3C(C)CC(OC(C)=O)C21 (stereo not drawn) | AML12 | lipid accumulation, Nile Red staining | – | together with: palmitate/oleate | – | IC50 | 19.5 ± 2.31 µM
CCCC(=O)Oc1c(C)c(OC)c2c(c1C)OC(=O)[C@@H](CC)[C@]2(O)/C=C/c1ccccc1 (racemic) | FaDu | cell growth or viability, SRB | – | 72 h | – | IC50 | > 50 µM

Excerpt of the above:
Structure (SMILES) | tested on | test | system | conditions | how to read | measurement | result
C=C1C(=O)OC2C1CCC(C)(O)C13C=CC(C)(C21)C1(C3)C(=O)OC2C3C(C)=CC(=O)C3C(C)CC(OC(C)=O)C21 (stereo not drawn) | AML12 | lipid accumulation, Nile Red staining | – | together with: palmitate/oleate | – | IC50 | 19.5 ± 2.31 µM
